Results gathered from unrelated publications.
Each numbered part is a random draw from the data of one study; scales do not carry over between parts. Changes are numbered by the printed parent chain.

Block 1
Target: Interferon regulatory factor 5, full length, phosphomimetic (IRF5, Homo sapiens, UniProt Q13568-2, residues 1-514, S451D/S453D/S456D/S462D)
Technique: protein-binding microarray
Molecule type: double-stranded DNA, one strand shown
Matrix: in vitro
Concentration: 940 nM top
Setting: 60-bp whole probe
Together with: salmon DNA 0.4 mg/ml
Reference: random background probes
Reading: higher = stronger binding
Shared flanks, not repeated: GCCTAGCAC … GTCTTGATTCGCTTGACGCTGCTG
`TCATGTTTTAAATTCTAACTGTGCTAG`: “fitted relative affinity” 0.405 z-score.
`CTTCTCCTCTAGGTTCTCTGAGTGCTA`: “fitted relative affinity” 0.139 z-score.
`TTTGGTCTCGGTCTCGGTTAGTGCTAG`: “fitted relative affinity” 7.92 z-score.
`TTAGAACTGAGACTGGATAAGTGCTAG` — result for “fitted relative affinity”: -0.187 z-score.
`TCAACTTGTCTTTTCATACTGTGCTAG`: “fitted relative affinity” 0.768 z-score.
Under “fitted relative affinity”, `GACGGACTGGGGACTGAGGACGTGCTA` is recorded as -0.424 z-score.
`GACGATTTCAGTTCCGAGACGTGCTAG` — result for “fitted relative affinity”: 0.806 z-score.
`TTAGATATCGGGGATCGATTAGTGCTA`: “fitted relative affinity” 0.242 z-score.
Under “fitted relative affinity”, `TTAGGTTTCCGTTCCGGTTAGTGCTAG` is recorded as 2.96 z-score.
`TTAGGTTTCGGTCTGGGTTAGTGCTAG`: “fitted relative affinity” 15.3 z-score.
Under “fitted relative affinity”, `TTAGAACTGAGTTTCCATTAGTGCTAG` is recorded as 0.337 z-score.
`TTAGATTTCGGGACTGGATTAGTGCTA`: “fitted relative affinity” 0.608 z-score.
`TTCTTTTTTTCTTTTATTAGGTGCTAG`: “fitted relative affinity” 2 z-score.
`CTAGAGATTTTTCTCAACCGGTGCTAG` — result for “fitted relative affinity”: -0.43 z-score.
Under “fitted relative affinity”, `GACGGACTGGACTATCGGGGCGTGCTA` is recorded as -0.724 z-score.
Under “fitted relative affinity”, `GACGGTATCGGTTATCGGGACGTGCTA` is recorded as 8.59 z-score.
`TTAGGTTGCGACACTGGGTTAGTGCTA` — result for “fitted relative affinity”: 0.399 z-score.
For `GACGGACTGGAAACTGGGGACGTGCTA`, “fitted relative affinity” read -0.593 z-score.

Block 2
Target: RNA binding protein fox-1 homolog 2, RRM domain, GST-SBP tag (RBFOX2, Homo sapiens, UniProt O43251-10, residues 100-194)
Technique: RNA Bind-n-Seq
Molecule type: RNA
Matrix: in vitro
Concentration: 365 nM
Setting: natural RNA segment, single round, ends assumed
Reference: no-protein control
Reading: higher = stronger binding
Shared flanks, not repeated: GGGAGUUCUACAGUCCGACGAUC … UGGAAUUCUCGGGUGCCAA
Target sequence (chain): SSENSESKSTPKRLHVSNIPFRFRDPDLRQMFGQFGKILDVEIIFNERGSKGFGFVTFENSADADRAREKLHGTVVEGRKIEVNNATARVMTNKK
`GUAGCUGGGUACAUUCCCCGUCAGUGUGACUUCCUUUCAUUUUGACAACUUCCUUCCUUUAAGAUGCUAAGUGGUGAACUUUACUGUUUUGUACAGUGAACUGUGACUUU` — result for “RBNS enrichment (R)”: 0.497.
`CUUCCUGGUCUUGCCAGGCACCUGCACAGAGCGUCUCCAGCCCCAUCUCCUAACGGGGGCUGGGGGUAAGAGAAAUCUAACUGCGCUCCCCCAACCCCUCGCCCUGCCAU` — result for “RBNS enrichment (R)”: 0.509.
For `GUUUGUCCCUUCUACAGGCAUGAGGAAUCUGGGAGGCCCUGAGACAGGGAUUGUGCUUCAUUCCAAUCUAUUGCUUCACCAUGGCCUUAUGAGGCAGGUGAGAGAUGUUU`, “RBNS enrichment (R)” read 23.4.
For `CUCCCUGGAUACUCUUGGCCCACCGCAGAUCUGUAGCCAGUCAGAGGAGGAGGAGAAGGAGCCCCUCAGCAGAGUGGUGCAGUUUCGCUCAGAGCUUGUCUCCUUGGCUU`, “RBNS enrichment (R)” read 0.524.
`AGGCUCAAGGUCCAGGGAGAGACAACAGAGGAGUGUCCAAGACUUGCCCACACCUCCUCCCAUUUGCUGGGGGAGCUUUGGCCAAUUCACUCCUUUCUAGGUCUUAGUUU` — result for “RBNS enrichment (R)”: 0.375.
`CUGGAGGAAGAAGACACAUUCCUAGUUCCCCGUGAACUUCCUUUGACUUAUUGUCCCCACUAAAACAAAACAAAAAACUUUUAAUGCCUUCCACAUUAAUUAGAUUUUCU` — result for “RBNS enrichment (R)”: 0.695.
`AGGCUGGACCACACGCUAACCUCCUGAGUGGUUCAGCUGCGUCUGGUCUGGUCAGGGUCCUGCUGCUUCCGUAACCUGGGUUUGCCUGUCCACCCCUGGCCUCUUCCGUA` — result for “RBNS enrichment (R)”: 0.688.
Under “RBNS enrichment (R)”, `AAGCCAUUUUGGUUUUCCUUAACUAAAUGAUAAAUGUACCCCUCUCAGUCUGCAGUAUUGAGUUGUUUAAAGUAUAUGUGCAGUCUUGCUUACAAGGAGGGGUUACCAUG` is recorded as 0.468.
`CUGGCAGUAAAGAUGGCCCCAGACUGGGUUCCUGCCUGCAGUGUGUGUGGCGGUAGCCCAUGUGCCUUUACCUAAUGUCAGAUUUGCAAGCGUUUCGUCUGUCUUUAUGU`: “RBNS enrichment (R)” 2.13.
For `CGGUGCUGCUGUUAAGACGUGAGUGCAUUUCACUUGGAAGAACCCAUUGUACAAAGUUCAAGGCUAAGAGUUCUGAAUUCUGGCGUCAGCUUCCUCAGGAUUUUCUUCAG`, “RBNS enrichment (R)” read 0.262.
`UAAGCCAGAGUCUUGUCUAUCAGAUUCCCACAACCACUCCUGAUUCUAAAUUUAGUGAUAUGGUAAUGAAAUUGGUAUUUAUUUUAAAUAUUAGUUAUUCUAAGGAGAAA`: “RBNS enrichment (R)” 0.368.
Under “RBNS enrichment (R)”, `GUAGGAUUCAAAUGUGUGUCAUUUAGAAGUGGAAGCUAUUAGCACCAAUGACAUAAAUACAUACAAGACACACAACUAAAAUGUCAUGUUAUUAACAGUUAUUAGGUUGU` is recorded as 0.315.

Block 3
Target: Histone acetyltransferase KAT6A, winged helix 1, GST fusion (KAT6A, Homo sapiens, UniProt Q92794, residues 1-85)
Technique: protein binding microarray
Molecule type: double-stranded DNA, one strand shown
Matrix: in vitro
Concentration: not given
Setting: 8-mer, flanks averaged, mean of 2 arrays, mostly near background
Reference: not given
Reading: higher = stronger binding
Target sequence (chain): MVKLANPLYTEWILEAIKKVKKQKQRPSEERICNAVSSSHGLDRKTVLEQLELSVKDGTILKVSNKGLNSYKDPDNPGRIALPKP
With `AGGGACAC` the E-score was -0.111.
With `CCAGGTCA` the E-score was -0.165.
With `CCTGAACG` the E-score was -0.0821.
`CACGAACC` has an E-score of 0.131.
With `TCACCTCA` the E-score was -0.157.
With `ATCGGTTG` the E-score was -0.0795.
The E-score of `GCTTGCCC` is reported as -0.037.
With `GTAGTATA` the E-score was 0.121.
`CTCGATCA` has an E-score of -0.0632.
`CCACGCCA` has an E-score of -0.225.
With `TAGTCAGA` the E-score was -0.0558.
For `GTTCCTAA`, the E-score was -0.131.
`AGTCATGC` has an E-score of 0.0115.
`ATGTATAC` gave an E-score of -0.116.
`CGCAGCAC` has an E-score of 0.163.
With `ACGTTTTC` the E-score was 0.0392.
The E-score of `CTTCACAA` is reported as -0.288.
With `CTCGGGTC` the E-score was 0.15.
`GGTTATAC` gave an E-score of 0.0445.
The E-score of `CGCCTAGC` is reported as 0.288.
`ACGTTGCT` gave an E-score of -0.206.
For `AATCCCGC`, the E-score was 0.349.
The E-score of `AGCACCCC` is reported as -0.00556.
`CCCGCCCC` gave an E-score of 0.355.
`AGGGGCGC` gave an E-score of 0.218.

Block 4
Target: CCND3, cyclin fold, Cln2 fusion (human)
Technique: yeast growth competition, sequencing
Matrix: yeast
Setting: weak parent motif
Reference: not given
Reading: higher = stronger binding
Starting sequence: E2F1 docking peptide (human); PPVKRRLDLETDH
For `NPVKRRLDLETDH [P1N]`, “normalised enrichment score” read 0.17.
`PPVKRRLDLETEH [D12E]`: “normalised enrichment score” 0.172.
`PPVKARADLETDH [R5A L7A]` — result for “normalised enrichment score”: -0.0237.
`PPVKRRSDLETDH [L7S]`: “normalised enrichment score” 0.126.
For `PPVKRRLDLETLH [D12L]`, “normalised enrichment score” read 0.106.
`PPVKRHLDLETDH [R6H]` — result for “normalised enrichment score”: 0.178.
For `PPVKRRLKLETDH [D8K]`, “normalised enrichment score” read 0.152.
`PAVKRRLDLETDH [P2A]`: “normalised enrichment score” 0.0482.
`PPVKMRLDLETDH [R5M]` — result for “normalised enrichment score”: 0.179.
`PQVKRRLDLETDH [P2Q]` — result for “normalised enrichment score”: 0.0556.
Under “normalised enrichment score”, `QPVKRRLDLETDH [P1Q]` is recorded as 0.0928.
Under “normalised enrichment score”, `PPVKRRLDLETDM [H13M]` is recorded as 0.0953.
`PDVKRRLDLETDH [P2D]` — result for “normalised enrichment score”: 0.127.
`PPVKHRLDLETDH [R5H]` — result for “normalised enrichment score”: 0.147.
`PPAKRRLDLETDH [V3A]`: “normalised enrichment score” 0.174.
`PPVKRRLDLRTDH [E10R]`: “normalised enrichment score” 0.124.
Under “normalised enrichment score”, `PWVKRRLDLETDH [P2W]` is recorded as 0.0891.
Under “normalised enrichment score”, `PPVKRRLQLETDH [D8Q]` is recorded as 0.0634.
For `PPVKKRLDLETDH [R5K]`, “normalised enrichment score” read 0.273.
`PSVKRRLDLETDH [P2S]`: “normalised enrichment score” 0.1.
`PPVKRRLDLETDN [H13N]`: “normalised enrichment score” 0.0313.
Under “normalised enrichment score”, `PPVKRRLDLITDH [E10I]` is recorded as 0.138.
`PPVKRYLDLETDH [R6Y]` — result for “normalised enrichment score”: 0.0921.
For `DPVKRRLDLETDH [P1D]`, “normalised enrichment score” read 0.065.
For `YPVKRRLDLETDH [P1Y]`, “normalised enrichment score” read 0.289.
